Assay results pooled from the literature.
Every numbered part comes from another study and shows a few of its results, in no order.

Study 1 — technique: RNA Bind-n-Seq; molecule type: RNA; sample: in vitro; tested at: not given; reference: input RNA pool; direction: higher = stronger binding
Target: RING finger protein unkempt homolog, zinc fingers 1-6, GST-SBP tag (UNK, Homo sapiens, UniProt Q9C0B0, residues 30-357)
Notes: RNA with constant flanks, human-mouse chimeric sites, ends assumed
Shared flanks, not repeated: GGGAGUUCUACAGUCCGACGAUC … CAACAGAGGAUUGAGCAUCA
Target sequence (chain): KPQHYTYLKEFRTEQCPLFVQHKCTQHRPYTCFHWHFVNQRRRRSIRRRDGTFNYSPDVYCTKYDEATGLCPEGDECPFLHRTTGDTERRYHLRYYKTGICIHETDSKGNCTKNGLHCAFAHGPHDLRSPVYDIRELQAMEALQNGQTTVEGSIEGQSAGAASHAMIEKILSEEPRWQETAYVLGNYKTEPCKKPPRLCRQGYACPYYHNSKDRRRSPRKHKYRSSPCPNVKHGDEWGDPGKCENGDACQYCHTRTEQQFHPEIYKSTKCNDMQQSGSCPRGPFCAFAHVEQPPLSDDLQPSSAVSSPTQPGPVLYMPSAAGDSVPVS
Oligonucleotide	bound/input enrichment [ratio]
AAAGAGUGGAUAGAGUGUGCACACGGGAUCGGUGGGACCCGGGCGAAAAAGGAGUGCAAGAUAGAGUUCGAUGACUUCGUAGAGUGUUUGCUUCGGUAGAAAACGAUGAGGCGAAUGCAU	0.556
GUGACUGGUGUUAAGAUUUCCCCUCAGCAAAGAAGUGCAGUAGUCACCAUAAUUCCAUCUAUAGUGAAUGCCAAUCAGAUUGUGGAGCUGGUCCCAGACCUCAGUUUAGACAUGGGAACU	6.02
CUGUGACCACAAGAUCCUACCUGAGUGGCAGCUGAAGCACUUUUCUUCUCCUUGCCUGAACCCCCCCCCACUGCCCCCCCAUCCCCCAGUGUCGGCUGAGAUGUUGCCUCUGCACGGUUC	1.32
UUUCUACUGCAGCAAACCAUGCUACGAAUUAAGGAUCCUAAGAAGUCCCUGGAUUUUUAUACUAGAGUUCUUGGACUGACCCUCCUGCAGAAGCUUGACUUCCCUGCUAUGAAGUUCUCG	0.151
ACUCUUGACUCUUUCCAUUCUCGUCCCUUCCCUCUUGAUAUUCAAGGCCAUGAAUCCCAAAAUAACAGUCUUAGUGGCUAGCACCCAAACAGAGGUGGGUGCCAUCCACCCCAGUGUCUC	0.387
GCUCUUGGCAAUGUAAUCAGCGCCUUGGGGGACAAGAGCAAGAGAGCCACCCAUGUCCCCUAUAGAGACUCUAAGCUGACAAGACUCUUGCAGGAUUCCCUUGGGGGUAACAGCCAAACC	0.117
GGUGGGGUGGUCAUUGCCGUUUGAGCUGCUGAUUUUCUUAUGAAUCAUUCAAAACUCUCGUGUAGGGUUGACAAUGUGGGGGGGUGGGGGAUCCAGCUUAUUCUUUUAUUUUCAAGUCCA	0.721
CACACACUCUUCUGCGGGACCCUCAUCUUGCAGGCCCGGGCCUAUGUGGGACCCCGUGUCCUGGCAGUGGUGACCCGCACAGGGUUCUGCACAGCCAAAGGGGGCCUGGUGAGCUCCAUC	0.0414
UGACAAGCACGAGCAUCAGCCAUGCCUUUCCUUGACAUACAGAAAAAGCUGGGCAUCAGCCUGGACCGGCACUUUAUGUUCCUAAGCGCAGAACAGCCCUAUAAGAAGGCUGGUCGAUGC	0.138

Study 2 — technique: RNA Bind-n-Seq; molecule type: RNA; sample: in vitro; tested at: 365 nM; reference: no-protein control; direction: higher = stronger binding
Target: RNA binding protein fox-1 homolog 2, RRM domain, GST-SBP tag (RBFOX2, Homo sapiens, UniProt O43251-10, residues 100-194)
Notes: natural RNA segment, single round, ends assumed
Shared flanks, not repeated: GGGAGUUCUACAGUCCGACGAUC … UGGAAUUCUCGGGUGCCAA
Target sequence (chain): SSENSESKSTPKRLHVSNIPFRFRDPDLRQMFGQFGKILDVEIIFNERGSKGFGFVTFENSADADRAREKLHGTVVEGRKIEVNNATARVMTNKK
Oligonucleotide	RBNS enrichment (R)
GCUGGAUCCACCCCUGCGGAGCCCUGGGCCAGGCAGGUGUCUGCUGCUCACCUGGCUCUGGAGGGCUGCCCUGCAGCUGGGCCUGGGGACAGGUCGGCUGUGGGGCAGCU	0.278
UUGGCAGUCAGGGGGGUGUCAUACAUGAUUCUUGCCUUUUCCUUUGCUUGAUGUCUAUACUGGAUCCCCAUGGUGGAGUAGGACUCUCUGUGGAGCCUCUGGCAUAAGAG	1.22
GCUAUUAAAUAACAUCGAGUAACAUCUGCAUCAGGCCCUCAGAAUAUACAGUUGAGUUGGGAGUAAACUGAAAAGACAAAUGUGUUGAAGGCUAUGCCAGGGAAUCUGGC	0.616
CCUUCAAGUAUGUGCUACUUUUUUGUCCCUGUAUCUAACUCAAAUCAGGAACUGUAUUUUUUUUAAUGAUUUGCUUUUGAAACUUGAAGUCUUGAAAACAGUGUGAUGCA	3.02
AAAGUGCCAGAUGGAGUUUAAAUAUUGAAAUUAUUUUAAAAGGUAGGUGUCUUUAAGAAAAUAACAAGCAACCCUGUGAUAUGUUCCGUCUCUCCCAAUUCCCUCGUUAU	0.366
GUAAUGCAGGAUCAAGACCACCACUGCAUGUGUACUGAAAACUGCAGACUUCUGCCCGCUUGGGACAGAACAUUGCAUGUGAGGUGGGAUUAUCAAGUUUCAAAGACCUG	5.76
UGGCAGUUGCACCUGACCUUCAUUUCUUCUCAAAUUUGACCAGUUCAAGAGACUCGUAGAUGACUUUGCCUCCACAGCCGAUUUCCUCAUCAUUUACAUUGAAGAAGCUC	0.476
CCUCUUCUCAAGGCCAUGUAAGUUGCCCAUCUCUACCUGGCUGUGGACAAAAGGUUAUCUGCUCUUGGCCAUCUGGUGGUGGUGGCGGCCCAGAGUCUGAAGAAAUGGCA	0.913
AUUUGUCAUUUCAGUUUUUUACUGAAAUUUGAGCUAAACAUUUUUACAUGUAAAUACUUGUAUUUACCAAAGAUUUAAAUCAGUUGAUUAAUUAAUUAACUCAAAUACUG	0.388
UACAAUCACCGUGUAAGUUAUGGUCUAAACCUGUCCUUUUGAGAGAGAAAAAGAUACUGUUGAUAAUCCUGUCAGCUCCUUAGGCACUUCGGAGGCUGAGGCAGGAGAAU	0.414
UCGUUUGCGUUGAGAAUUGGCAUGCAGUGUGUGUGAGCCGAGGGCCUCCUCAGUGUUCCACAAGCUUCAGGUCAUCAGGUCGGUCCAACUGAAGGCAUGAAAAUCAAGUG	4.54
UCAGUAUUUGAUUUUUCCAGUGUUUGUUUUUUAAAAAACUGACAGGUGCUACAUUUCUAUCUGUUGGUUUCAAUUCUGCCAUAUUUCAUGUCUAGCCUUUAGAGUGGCCA	0.678

Study 3 — technique: protein binding microarray; molecule type: double-stranded DNA, one strand shown; sample: in vitro; tested at: not given; reference: not given; direction: higher = stronger binding
Target: Histone acetyltransferase KAT6A, both winged helices, GST fusion (KAT6A, Homo sapiens, UniProt Q92794, residues 1-181)
Notes: 8-mer, flanks averaged, mean of 2 arrays, mostly near background
Residues (chain): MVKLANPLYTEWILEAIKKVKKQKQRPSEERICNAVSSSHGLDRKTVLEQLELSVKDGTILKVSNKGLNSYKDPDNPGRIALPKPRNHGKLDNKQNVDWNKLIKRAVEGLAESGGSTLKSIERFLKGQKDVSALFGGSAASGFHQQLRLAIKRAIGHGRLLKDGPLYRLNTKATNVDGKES
Oligonucleotide	E-score
AGACAGTA	-0.351
GATCGCAC	0.141
CCGCGACG	0.31
AGACCGCT	0.195
AAACAGTG	-0.0758
GAAGGGTA	0.0449
AGTTATTG	-0.02
ATCGTGAA	-0.00822
AATCGAGA	0.0254
ACTTCCGC	0.21
ACTAGACA	-0.0648
CGTACTAA	0.0797
ACCCTATG	-0.253
AAAGCATT	-0.193
GGTAGGGA	-0.0951
CTATTATC	-0.0495

Study 4 — technique: protein-binding microarray; molecule type: double-stranded DNA, one strand shown; sample: in vitro; tested at: 2540 nM top; notes: 60-bp whole probe; added: salmon DNA 0.4 mg/ml; reference: random background probes; direction: higher = stronger binding; shared flanks, not repeated: GCCTAGCAC … GTCTTGATTCGCTTGACGCTGCTG
Target: Interferon regulatory factor 3, full length, phosphomimetic (IRF3, Homo sapiens, UniProt Q14653, residues 1-427, S386D/S396D/S398D/S402D/T404D/S405D)
Chain of UniProt Q14653 (whole entry, unmodified, looked up): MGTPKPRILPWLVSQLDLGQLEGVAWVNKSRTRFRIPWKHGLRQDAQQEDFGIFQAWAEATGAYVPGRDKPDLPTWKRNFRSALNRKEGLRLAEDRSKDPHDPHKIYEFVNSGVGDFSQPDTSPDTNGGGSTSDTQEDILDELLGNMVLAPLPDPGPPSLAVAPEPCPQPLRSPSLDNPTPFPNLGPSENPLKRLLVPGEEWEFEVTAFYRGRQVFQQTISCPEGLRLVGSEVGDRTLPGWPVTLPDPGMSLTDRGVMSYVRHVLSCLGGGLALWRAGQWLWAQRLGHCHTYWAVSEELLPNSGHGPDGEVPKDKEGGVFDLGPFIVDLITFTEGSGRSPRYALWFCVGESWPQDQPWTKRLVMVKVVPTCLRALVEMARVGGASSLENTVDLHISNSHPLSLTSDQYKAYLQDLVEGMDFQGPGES
Oligonucleotide	fitted relative affinity [z-score]
TTAGGTATCGACTTTCGGTTCGTGCTA	2.8
TCATCTTTACTTCACTCACTGTGCTAG	1.12
TTAGGTATCGGGTCTCGGTTAGTGCTA	2.44
TTAGGTCTCGGGATCGGTTAGTGCTAG	0.0497
TTAGGTATCGGGATCGGTTAGTGCTAG	1.93
AACGATTTCAGTTTCGAGACGTGCTAG	4.67
TTAGGTATCCTTTGCCTTTAGTGCTAG	2.43
TTAGCTTTCGACACTGGGTTAGTGCTA	0.453
TATTTTTACATTATTACCTCGTGCTAG	1.05
TGTGCATGTGTGTTTTCTGCGTGCTAG	-0.2
TTAGGTTTCGGTTTCGTTTAGTGCTAG	11.9
TCACTTTTCGCTTTCTTACTGTGCTAG	3.24
TTTCATTTATTTACTCTCTACGTGCTA	3.4
GACGGTATGCTACTGCTGACGTGCTAG	-0.517
TTAGGTATCGGGTATCGGTCAGTGCTA	1.42
GACGGTATCGGTTTCGGAACGTGCTAG	8.23
GACGGTATCGACACTCGGGACGTGCTA	0.596
TCAGGTTTCGACTTTCGGTTAGTGCTA	4.03
TTAGATTTCGGGTATCGATTAGTGCTA	1.6
GACGGTTTCCTACTGGTGACGTGCTAG	5.15
TTTTTTTTCTAACTAAAAATGTGCTAG	2.62
TTAGGTTTCCTTTCCCTCTAGTGCTAG	10.2
TCAAAAATGATTGGTTGACTGTGCTAG	-0.393
TTAGAACTGGGGTATCGATCAGTGCTA	-0.659
GGCAGGCTTGCCAGTTCCCCGTGCTAG	-0.803

Study 5 — technique: competition protein-binding microarray; molecule type: double-stranded DNA, one strand shown; sample: in vitro; tested at: 2 µM; added: Pho4 competitor, 0.05 µM; direction: higher = stronger binding; shared flanks, not repeated: … GTCTTGATTCGCTTGACGCTGCTG
Target: Centromere-binding protein 1, full length, His-tagged (CBF1, Saccharomyces cerevisiae, UniProt P17106, residues 1-351)
Chain of UniProt P17106 (whole entry, looked up): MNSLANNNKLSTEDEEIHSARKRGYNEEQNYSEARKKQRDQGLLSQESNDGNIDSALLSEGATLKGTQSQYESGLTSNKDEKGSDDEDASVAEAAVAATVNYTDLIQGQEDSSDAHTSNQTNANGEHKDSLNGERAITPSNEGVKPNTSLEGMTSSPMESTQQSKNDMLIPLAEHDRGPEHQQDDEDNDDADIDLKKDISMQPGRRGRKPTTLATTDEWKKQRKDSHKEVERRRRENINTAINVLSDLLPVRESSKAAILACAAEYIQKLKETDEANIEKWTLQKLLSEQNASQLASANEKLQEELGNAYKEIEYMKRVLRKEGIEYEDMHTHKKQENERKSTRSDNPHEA
Notes: whole 60-bp probe, lowest competitor level
Oligonucleotide	fluorescence intensity [a.u.]
GTACGGGTGGACGACCACGTGCCGACTATACGCTAT	2160
CATACCCAACCTTGAAGCGTGGGTGAAGATATTTGT	77.8
CTTTCCCGATCTTGGTCAGTGGGTGTAGCACATTTG	64.2
ATCGCTTATCGCTGTCATGTGACAGTTAATTGAAAT	2840
CTTTCCCGATCTTGCGAAGTGGGTGTAGCACATTTG	77.9
TGCCCTTGCGCCTGGCACGTTTCAGCTTCTTTCTAA	101
TGTAAATGATGATAACGTAAAAGCACTGTTGATAAT	87.4
CTAACGAAGGTTTGTCACGTTACTTACAAGCCAAGT	791
CTTTCCCGATCTTTTCACGTGTCCTTAGCACATTTG	947
GAAGTATTTTTTGCGAACGTGGAAGTATTTCACCCA	94.9
ACTTTCATTTGATGAAACGTGAAACTCTAATTAAGA	145
TTGGAAAGTGGCGATCTTGTGACGGTCAACGATGAT	76.3
CGGGGTTAAGTTTGTCACAACACTTGCTTGCAGCAG	87.4
AAAGCGGTAATTTGGAGAGTGGGTGCAGATATCTAT	76.1
GATTCCTCATCTCGTCAGGTGATATTTGCATTCTAT	974
CGACGAAGTACTGGACACGTTCCCTTCAAACATCAA	81.8
AAATTACTAAGTTGTCACTAAACTTACCCCGTATGA	64.5
CGTCCTAGTGATTGCCATGTGGGTGCCATGAGGAAG	116
ACACACATTCTCCGTCACATGGACGATGCCAGAGTC	468

Repeated from above (study 3):
Oligonucleotide	E-score
CCGCGACG	0.31
AGTTATTG	-0.02
AAAGCATT	-0.193
AGACCGCT	0.195
CGTACTAA	0.0797
AAACAGTG	-0.0758
GGTAGGGA	-0.0951
AGACAGTA	-0.351
AATCGAGA	0.0254
